Measured values from different studies.
Each numbered part is a random draw from the data of one study; scales do not carry over between parts.

Sample 1
Target: Sal-like protein 4, full length isoform A (SALL4, Homo sapiens, UniProt Q9UJQ4, residues 1-1053)
UniProt Q9UJQ4, sequence (whole entry, looked up): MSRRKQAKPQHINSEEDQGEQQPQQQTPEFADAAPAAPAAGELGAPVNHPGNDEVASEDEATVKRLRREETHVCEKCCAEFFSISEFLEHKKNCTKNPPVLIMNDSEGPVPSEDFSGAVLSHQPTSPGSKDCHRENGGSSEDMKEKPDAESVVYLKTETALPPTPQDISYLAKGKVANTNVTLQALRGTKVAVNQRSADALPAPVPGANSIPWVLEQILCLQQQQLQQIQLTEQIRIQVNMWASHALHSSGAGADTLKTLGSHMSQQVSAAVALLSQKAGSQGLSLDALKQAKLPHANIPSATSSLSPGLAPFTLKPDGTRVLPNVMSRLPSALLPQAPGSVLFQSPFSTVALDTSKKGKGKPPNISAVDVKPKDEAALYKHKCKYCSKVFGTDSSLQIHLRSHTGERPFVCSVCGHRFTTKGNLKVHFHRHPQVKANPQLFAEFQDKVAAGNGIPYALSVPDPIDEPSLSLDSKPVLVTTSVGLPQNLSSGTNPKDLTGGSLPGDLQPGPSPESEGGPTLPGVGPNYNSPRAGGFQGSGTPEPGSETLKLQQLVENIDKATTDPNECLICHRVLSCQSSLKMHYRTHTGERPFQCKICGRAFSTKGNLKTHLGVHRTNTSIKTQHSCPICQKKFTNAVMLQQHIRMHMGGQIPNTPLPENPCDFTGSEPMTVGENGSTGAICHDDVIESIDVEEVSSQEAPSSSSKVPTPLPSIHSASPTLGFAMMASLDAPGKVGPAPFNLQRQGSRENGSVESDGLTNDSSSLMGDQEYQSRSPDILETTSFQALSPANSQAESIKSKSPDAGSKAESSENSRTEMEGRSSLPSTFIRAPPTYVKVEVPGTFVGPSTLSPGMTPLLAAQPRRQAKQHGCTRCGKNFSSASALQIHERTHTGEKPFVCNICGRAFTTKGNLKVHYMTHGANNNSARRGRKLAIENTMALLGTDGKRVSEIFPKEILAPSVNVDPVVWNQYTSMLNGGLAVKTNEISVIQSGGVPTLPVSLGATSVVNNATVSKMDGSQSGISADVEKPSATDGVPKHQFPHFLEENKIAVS
Technique: universal PBM
Molecule type: double-stranded DNA, one strand shown
Matrix: in vitro
Concentration: 600 nM
Setting: 8-mer, flanks averaged, mean of replicates
Direction: higher = stronger binding
Oligonucleotide | E-score
GCTAGAAC | -0.118
AGCCTACC | -0.204
AAATCGAG | 0.0984
CCACCACA | -0.00307
CCAGGTTA | -0.0593
GATTATGA | 0.406
GCTACGAC | -0.0714
TGAGGCAA | -0.00396
GTGGTCCA | -0.189

Sample 2
Target: Interferon regulatory factor 7, full length, phosphomimetic (IRF7, Homo sapiens, UniProt Q92985, residues 1-503, S471D/S472D/S475D/S476D/S477D/S483D/S484D/S487D)
Technique: protein-binding microarray
Molecule type: double-stranded DNA, one strand shown
Matrix: in vitro
Concentration: 2200 nM top
Setting: 60-bp whole probe
With: salmon DNA 0.4 mg/ml
Baseline: random background probes
Direction: higher = stronger binding
Shared flanks, not repeated: GCCTAGCAC … GTCTTGATTCGCTTGACGCTGCTG
Residues (chain): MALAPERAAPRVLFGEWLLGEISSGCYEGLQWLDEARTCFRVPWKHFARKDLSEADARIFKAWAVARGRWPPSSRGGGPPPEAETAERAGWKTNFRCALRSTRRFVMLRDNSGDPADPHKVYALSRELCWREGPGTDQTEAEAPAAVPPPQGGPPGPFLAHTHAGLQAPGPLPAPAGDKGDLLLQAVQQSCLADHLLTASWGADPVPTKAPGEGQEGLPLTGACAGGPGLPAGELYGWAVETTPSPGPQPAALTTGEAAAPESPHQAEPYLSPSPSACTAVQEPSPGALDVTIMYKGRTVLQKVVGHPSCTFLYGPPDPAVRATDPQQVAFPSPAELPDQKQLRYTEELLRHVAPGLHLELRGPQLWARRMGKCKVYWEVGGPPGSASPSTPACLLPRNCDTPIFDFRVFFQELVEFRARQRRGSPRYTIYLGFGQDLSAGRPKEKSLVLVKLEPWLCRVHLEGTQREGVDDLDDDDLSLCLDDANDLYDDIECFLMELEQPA
Oligonucleotide | fitted relative affinity [z-score]
TTAGGTATCGCGTATCGGTTAGTGCTA | 0.566
TTAGATATCCGGTATCGATTAGTGCTA | 0.281
TTAGGTATCGGTCTCGGTGAGTGCTAG | 0.545
TTAGGTTTCATTATCCTTTAGTGCTAG | 2.88
GACGAACTGGGGTTTCGATACGTGCTA | 2.05
GACAACTGATATCAAAGGGAGTGCTAG | -0.0646
TTGCATCTGGGTATTTTTCTGTGCTAG | 1.14
GACGGTCTCGGCCTGGGGACGTGCTAG | -0.476
TTCGATTTCAGTTTCGATTAGTGCTAG | 8.64

Sample 3
Target: Fragile X messenger ribonucleoprotein 1, C-terminal low-complexity region (Fmr1, Mus musculus, UniProt P35922)
Technique: RNA Bind-n-Seq
Molecule type: RNA
Matrix: in vitro
Concentration: 200 nM
Setting: whole 134-nt RNA, ends assumed
With: 150 mM LiCl
Baseline: input library
Direction: higher = stronger binding
All molecules: 7-deaza-guanosine replaces G
Oligonucleotide | log2 enrichment
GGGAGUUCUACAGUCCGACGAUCUAACUUUAGAGGAGGAUCUGAUGGAUAUGGCAGUGGACGUGGAUUUGGGGAGGGCUAUAAUGGGUAUGGAGGAGGACCUGGAGGUGGCAAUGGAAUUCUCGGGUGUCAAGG | 0.674
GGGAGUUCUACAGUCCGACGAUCUGCCUACGUAAUUUUUUAUCUUGAAAUAUUCAAAAUUAGGAGCCAGAUGACCAAGAUGCUCCAGAUGAACAUGAGUCGCCUCCACCUGAAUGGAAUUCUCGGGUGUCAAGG | -0.413
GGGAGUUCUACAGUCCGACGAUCAAGUCCUGUGCUACACAUCGUAUGUACCGAAUCGGGGAAAGGGGUGGGGUUUGGGGAAAGUAUUAUGUUACGCCGUUCGGAUCUGCACUUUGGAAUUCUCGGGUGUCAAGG | -1.27
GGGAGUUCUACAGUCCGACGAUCCAAGUCCUGUGCUACACAUCGUAUGUACCGAAUCGGGGUGGGGAGGGGUUUGGGGAAAGUAUUAUGUUACGCCGUUCGGAUCUGCACUUCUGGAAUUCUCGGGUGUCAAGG | -0.293
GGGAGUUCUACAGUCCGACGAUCCCUGUGCUACACAUCGUAUGUACCGAAUCGGGGAGGGGUUUUUUUGGGGUUUUUUUGGGGAAAGUAUUAUGUUACGCCGUUCGGAUCUGCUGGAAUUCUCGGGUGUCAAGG | 1.23
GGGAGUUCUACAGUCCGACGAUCAAGUCCUGUGCUACACAUCGUAUGUACCGAAUCGGGGUUUUUGGGGUGGGGAGGGGAAAGUAUUAUGUUACGCCGUUCGGAUCUGCACUUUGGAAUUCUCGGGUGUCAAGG | -0.17

Single results of other studies
Molecule | target | test | test system | setting | scale | measurement | result
PhoQ, residues 284 288 289 292 302 303 AEGLLW | PhoP, residues 12 14 15 18 19 VQALL (Escherichia coli, UniProt P23836) | Sort-seq, item: YFP reporter | E. coli | PhoQ-PhoP variant library, with: 10 µM Mg2+ | baseline: high Mg2+ state, higher = stronger signaling | fold induction | 2.47

Repeated from above (sample 2):
Oligonucleotide | fitted relative affinity [z-score]
TTAGGTATCGCGTATCGGTTAGTGCTA | 0.566
GACAACTGATATCAAAGGGAGTGCTAG | -0.0646
GACGGTCTCGGCCTGGGGACGTGCTAG | -0.476
